Results gathered from unrelated publications.
Values joined by “and” are separate records of one study, mostly repeats; a detail may differ. ± gives the spread as reported.

Compound | test | test system | conditions | how to read | measurement | result
COc1c(Cl)cccc1Nc1c(-c2ccncc2OC[C@@H]2COCCO2)[nH]c2c1C(=O)NCC2 |  | mouse, NSCLC PDX sample A | oral, 25 mg/kg once daily, day 27, unit not given | baseline: vehicle | tumour weight T/C | 0.16
CC(C)c1ccccc1[C@@H]1CCCN1C1CC2(CCN(c3ccc(C(=O)NS(=O)(=O)c4ccc(NC[C@H]5CC[C@](C)(O)CC5)c([N+](=O)[O-])c4)c(Oc4cnc5[nH]ccc5c4)c3)CC2)C1 |  | mouse Toledo xenograft | oral, 15 mg/kg once daily, day 31 |  | tumour growth inhibition | 84%
CO.Cc1ccc2c(Cl)cc(Cl)c([O-])c2n1.Cc1ccc2c(Cl)cc(Cl)c([O-])c2n1.[Co+2].c1ccc2nc3c4cccnc4c4ncccc4c3nc2c1 |  | nude mouse, HeLa xenograft | 2.0 mg/kg |  | tumour weight | 0.88 ± 0.102 g
CC(C)c1ccc(N(C)c2ccc3c(c2)OCC[C@H]3CNc2cnccc2C(=O)O)cc1 |  | mouse, sample A gastric PDX | 50 mg/kg, day 38 |  | tumour growth inhibition | 52%
COc1cc(N2CCN(C(=O)C3CCCN3)CC2)ccc1Nc1ncc(Cl)c(Nc2ccccc2P(C)(C)=O)n1 (centres unmarked) |  | NCI-H3122 xenograft, female nude mouse | intraperitoneal, 10 mg/kg, every other day |  | tumour volume | 160 mm3 and 133 mm3 and 131 mm3 and 76.6 mm3 and 163 mm3
CC1(C)CCC(CN2CCN(c3ccc(C(=O)NS(=O)(=O)c4ccc(NCC5CCOCC5)c([N+](=O)[O-])c4)c(Oc4cnc5[nH]ccc5c4)c3)CC2)=C(c2ccc(Cl)cc2)C1 |  | mouse Toledo xenograft | oral, 50 mg/kg once daily, day 31 |  | tumour growth inhibition | 85%
COc1cnc2cccc(N3CCc4c(cc(Cn5ccnc5)cc4-c4cn(C)nc4C(F)(F)F)C3=O)c2c1 |  | BALB/c nude mouse, MV4-11 xenograft | intraperitoneal, 50 mg/kg, day 10 after inoculation |  | tumour volume | 165 mm3 and 100 mm3 and 149 mm3 and 143 mm3 and 158 mm3
C=CC(=O)N1CC2C(=O)N(CCN(C)C)c3c(c4cc(Cl)c(-c5c(O)cccc5F)nc4n(-c4c(C)ccnc4C(C)C)c3=O)N2CC1C (centres unmarked) |  | NCI-H358, mouse xenograft | oral, 30 mg/kg once daily |  | tumour growth inhibition | 112%
COC(=O)C1CN1S(=O)(=O)c1ccc2cc(C)ccc2c1 (centres unmarked) |  | mouse, Lewis lung carcinoma | ip, 100 mg/kg, 360 h |  | tumour volume | 769 mm3
CC(C)C[C@H](NC(=O)[C@H](Cc1ccccc1)NC(=O)[C@H](C)NC(=O)[C@@H](CS)NC(=O)CNC(=O)[C@H](N)CO)C(=O)N[C@@H](CO)C(=O)N[C@H](C(=O)N[C@@H](CCCCN)C(=O)N[C@@H](CCCCN)C(=O)N[C@@H](CCC(N)=O)C(=O)N[C@@H](Cc1ccccc1)C(=O)N[C@@H](CCC(=O)O)C(=O)N[C@@H](CCC(=O)O)C(=O)N[C@@H](CC(C)C)C(=O)N[C@H](C(=O)N[C@@H](CC(C)C)C(=O)NCC(=O)N[C@@H](CCC(=O)O)C(=O)N[C@@H](Cc1ccccc1)C(=O)N[C@@H](CC(C)C)C(=O)N[C@H](CCCCN)C(=O)N[C@H](CC(C)C)C(=O)N[C@H](CC(=O)O)C(=O)N[C@@H](CCCNC(=N)N)C(=O)N[C@H](CCCNC(=N)N)C(=O)N[C@@H](CCCNC(=N)N)C(=O)N[C@@H](CCCCN)C(=O)O)[C@@H](C)O)C(C)C |  | female nude mouse A549 xenograft | intratumoral, 50 µM, 28 days, three times weekly | baseline: untreated | tumour volume | ~20%
CSCC[C@@H]1NC(=O)[C@H](CC(N)=O)NC(=O)[C@@H](NC(=O)CCOCCOCCOCCNC(=O)CN2CCN(CC(=O)O)CCN(CC(=O)O)CC2)CSSC[C@@H](C(=O)O)NC(=O)[C@H](C(C)C)NC(=O)[C@H](CCSC)NC(=O)[C@@H]2CCCN2C(=O)[C@H]([C@@H](C)O)NC(=O)[C@H](Cc2c[nH]cn2)NC1=O [gallium-68 labelled] | PET | mouse, CHO-hLAG-3 xenograft | iv, 60 min |  | tumour uptake | 0.37 ± 0.02 %ID/g

A few entries again:
Compound | test | test system | conditions | how to read | measurement | result
C=CC(=O)N1CC2C(=O)N(CCN(C)C)c3c(c4cc(Cl)c(-c5c(O)cccc5F)nc4n(-c4c(C)ccnc4C(C)C)c3=O)N2CC1C (centres unmarked) |  | NCI-H358, mouse xenograft | oral, 30 mg/kg once daily |  | tumour growth inhibition | 112%
